Measurements of several laboratories.
Several values in a cell are separate wells, animals, samples, runs or records. ± marks the error that the study gave.
TDP1: Tyrosyl-DNA phosphodiesterase 1 (TDP1, Homo sapiens, UniProt Q9NUW8)
UniProt Q9NUW8, sequence (whole entry, looked up): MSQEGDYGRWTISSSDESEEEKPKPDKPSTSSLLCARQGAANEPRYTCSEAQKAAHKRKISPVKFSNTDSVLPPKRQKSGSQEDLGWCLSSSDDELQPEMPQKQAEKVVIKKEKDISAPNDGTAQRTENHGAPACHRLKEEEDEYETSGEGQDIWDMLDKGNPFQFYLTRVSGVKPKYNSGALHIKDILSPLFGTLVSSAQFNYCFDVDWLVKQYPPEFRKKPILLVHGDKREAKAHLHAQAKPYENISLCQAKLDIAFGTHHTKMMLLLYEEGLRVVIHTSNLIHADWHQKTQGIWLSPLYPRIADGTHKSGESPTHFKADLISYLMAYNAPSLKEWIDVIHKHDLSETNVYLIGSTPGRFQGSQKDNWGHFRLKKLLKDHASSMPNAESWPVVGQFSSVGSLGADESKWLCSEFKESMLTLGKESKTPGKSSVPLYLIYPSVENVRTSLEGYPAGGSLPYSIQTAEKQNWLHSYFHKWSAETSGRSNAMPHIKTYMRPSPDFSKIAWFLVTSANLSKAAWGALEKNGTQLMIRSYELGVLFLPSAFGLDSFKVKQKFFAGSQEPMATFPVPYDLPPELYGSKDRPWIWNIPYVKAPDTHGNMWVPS

For `O=C(Cn1ccnc1[N+](=O)[O-])NCc1ccccc1`, the translation activity was 101% and 91.3% (reporter mRNA translation, inhibitor, measured: Renilla luciferase mRNA; Trypanosoma cruzi cell extract; concentration not given; relative to: positive and negative controls).
For `Cc1cc(F)ccc1-c1cc(N2C[C@H]3COC(O)CN3C[C@H]2CO)ncc1N(C)C(=O)C(C)(C)c1cc(C(F)(F)F)cc(C(F)(F)F)c1` (stereo partly drawn), the Vmax was 79 pmol/min/mg (human liver microsomes; formation of M18/21).
With `O=C(O)c1ccc(Nc2c(-c3ccc(CON=Cc4ccc(OC5CCCCC5)nc4)cc3)nc3cc(-c4ccccc4)ccn23)cc1` the inhibition was 63.4% (TDP1; enzyme activity, inhibitor; 100 µM, unpurified compound).
With `[2H]C([2H])([18F])Oc1cc(C(=O)OCC2CCN(CCCC)CC2)ccc1N` the BPND was 0.43 ± 0.13 (PET SRTM; rhesus monkey, frontal cortex; baseline, unit not given; relative to: cerebellum).
For `O=C(Nc1[nH]nc(-c2ccccn2)c1C1CC1)N1CC[C@@H](Cn2cc(C(F)(F)F)cn2)C1`, the translation activity was 87.9% and 84.6% (reporter mRNA translation, inhibitor, measured: Renilla luciferase mRNA; Trypanosoma cruzi cell extract; concentration not given; relative to: positive and negative controls).
`CN(C(=O)C(C)(C)c1cc(C(F)(F)F)cc(C(F)(F)F)c1)c1cnc(N2C[C@H]3COCCN3C[C@H]2CO)cc1-c1ccc(F)cc1CO` gave a Vmax of 249 pmol/min/mg (human liver microsomes; formation of M18/21).
For `O=C(O)c1ccc(Nc2c(-c3ccccc3)nc3ccc(CON=Cc4ccc(I)c(O)c4)cn23)cc1`, the inhibition was 87.6% (TDP1; enzyme activity, inhibitor; 100 µM, unpurified compound).
`COc1cc2nc(N(CCCN(C)C)C(=O)c3ccc(S(=O)(=O)N4CCc5ccccc54)cc3)sc2cc1OC.Cl` gave a translation activity of 96.9% and 89.4% (reporter mRNA translation, inhibitor, measured: Renilla luciferase mRNA; Trypanosoma cruzi cell extract; concentration not given; relative to: positive and negative controls).
`CC(=O)ON=Cc1c(C)c(C=NOCc2ccc(-c3nc4cc(-c5ccccc5)ccn4c3Nc3ccc(C(=O)O)cc3)cc2)n2ccccc12` has an inhibition of 96.6% (TDP1; enzyme activity, inhibitor; 100 µM).
With `CC(C)[C@H](NC(=O)[C@H](CC(=O)O)NC(=O)[C@@H](NC(=O)[C@H](Cc1c[nH]c2ccccc12)NC(=O)[C@H](CCC(=O)O)NC(=O)[C@H](C)NC(=O)[C@H](CC(=O)O)NC(=O)CNC(=O)[C@H](Cc1ccc(O)cc1)NC(=O)[C@H](Cc1ccc(OP(=O)(O)O)cc1)NC(=O)[C@H](Cc1ccc(O)cc1)NC(=O)CCNC(=O)c1ccc(C(=O)[O-])c(-c2c3ccc(=[N+](C)C)cc-3oc3cc(N(C)C)ccc23)c1)C(C)C)C(=O)N[C@@H](CO)C(=O)O` the dephosphorylation conversion was about 93% (HPLC/LC-MS; PBS; concentration not given, 60 min, 37 °C, added: alkaline phosphatase 30 U/mL).
The inhibition of `O=C(O)c1ccc(Nc2c(-c3ccccc3)nc3ccc(CON=Cc4ccc(COc5c(F)c(F)cc(F)c5F)o4)cn23)cc1` (mixture of isomers) is reported as 20.7% (TDP1; enzyme activity, inhibitor; 100 µM, unpurified compound).
For `CCCCCC(O)/C=C/C=O` (stereo not drawn), “isoTOP-ABPP competition ratio” read 1.8 (Histone H3.2 (H3C15, Homo sapiens, UniProt Q71DI3); competitive isoTOP-ABPP, measured: HIST2H3C cysteine peptide; proteome, soluble, MDA-MB-231; 100 µM, added: iodoacetamide probe; relative to: DMSO over compound-treated, higher = stronger cysteine blockade).

Repeated from above:
For `O=C(Cn1ccnc1[N+](=O)[O-])NCc1ccccc1`, the translation activity was 101% and 91.3% (reporter mRNA translation, inhibitor, measured: Renilla luciferase mRNA; Trypanosoma cruzi cell extract; concentration not given; relative to: positive and negative controls).
